Experimental data of several laboratories.
A part holds a random share of what one study measured.

Series 1 — observed: ligand displacement; concentration: 10 µM
Compound: O=C(NCc1ncc(C(F)(F)F)cc1Cl)c1ccc2c(c1)C1(CCS(=O)(=O)CC1)[C@H](C1CC1)N2S(=O)(=O)c1ccc(F)cc1
It gave -5.62% for inhibition (ADRA2A (Homo sapiens, UniProt P08913)).
For ADRA2C (Homo sapiens, UniProt P18825): inhibition read 12.8%.
For ADRA1B (Homo sapiens, UniProt P35368): inhibition read -4.46%.

Series 2 — technique: RNA Bind-n-Seq; form: RNA; medium: in vitro; concentration: 20 nM; setting: 6-mer, flanks averaged, single round; added: 150 mM KCl; relative to: input library; direction: higher = stronger binding
Target: TAR DNA-binding protein 43, full length, His tag (TARDBP, Homo sapiens, UniProt Q13148, residues 1-414)
For `AUGACC`, “6-mer enrichment (R)” read 0.643.
`AGGUGA`: “6-mer enrichment (R)” 1.41.
`GCCAAG` — result for “6-mer enrichment (R)”: 1.12.
Under “6-mer enrichment (R)”, `GAUAAG` is recorded as 0.957.
`CCAGGG` — result for “6-mer enrichment (R)”: 2.21.
Under “6-mer enrichment (R)”, `CCCCUU` is recorded as 0.696.
`CUAGAG` — result for “6-mer enrichment (R)”: 0.927.
For `UCAUAU`, “6-mer enrichment (R)” read 0.559.

Series 3 — observed: enzyme activity; action: inhibitor; concentration: 0.5 µM; relative to: control
Target: Proto-oncogene tyrosine-protein kinase receptor Ret (RET, Homo sapiens, UniProt P07949)
The remaining activity of `NCCNc1ncc(C(N)=O)c(Nc2cccc(C(F)(F)F)c2)n1` is reported as 74.1%.
The remaining activity of `N#CC(C#N)=C(N)/C(C#N)=C/c1ccc(O)cc1` is reported as 110%.
For `Nc1ncnc2n[nH]c(Nc3ccc(F)cc3)c12`, the remaining activity was 78.1%.
With `COc1ccc(OC)c2c(=S)c3ccccc3[nH]c12` the remaining activity was 82.8%.
With `OCC(O)CCON=C1C(c2c(O)[nH]c3ccccc23)=Nc2ccccc21` (stereo not drawn) the remaining activity was 1.22%.
For `O=C(O)c1ccc2c3c1cccc3c(=O)n1c3ccccc3nc21`, the remaining activity was 96.8%.
The remaining activity of `O=c1c2ccccc2[nH]c(=S)n1CCN1CCC(=C(c2ccc(F)cc2)c2ccc(F)cc2)CC1` is reported as 106%.
`COc1cc2ncnc(Nc3ccc(Oc4ccccc4)cc3)c2cc1OC` has a remaining activity of 40.6%.
The remaining activity of `Cc1cccc(-c2[nH]c(C(C)(C)C)nc2-c2ccc3c(c2)OCO3)n1` is reported as 103%.
`CO[C@H]1C[C@@H]2CC[C@@H](C)[C@@](O)(O2)C(=O)C(=O)N2CCCC[C@H]2C(=O)O[C@H]([C@H](C)C[C@@H]2CC[C@@H](O)[C@H](OC)C2)CC(=O)[C@H](C)/C=C(\C)[C@@H](O)[C@@H](OC)C(=O)[C@H](C)C[C@H](C)/C=C/C=C/C=C/1C` has a remaining activity of 98.7%.
For `O=C(CCCc1ccc(-c2ccccc2F)cc1)Nc1ccc(O)cc1`, the remaining activity was 111%.
With `Cn1sc(=O)n(Cc2ccccc2)c1=O` the remaining activity was 106%.
`Nc1ccc2ncnc(NCCc3ccc(Oc4ccccc4)cc3)c2c1` has a remaining activity of 101%.
`Oc1ccc(-c2nc(-c3ccncc3)c(-c3ccc(F)cc3)[nH]2)cc1` has a remaining activity of 89.3%.

Series 4 — technique: protein-binding microarray; form: double-stranded DNA, one strand shown; medium: in vitro; concentration: not given; direction: higher = stronger binding
Target: Myc proto-oncogene protein, bHLH-zipper, MAX partner unstated (MYC, Homo sapiens, UniProt P01106, residues 368-449)
Setting: k-mer, scored over probes, only values ≥0.25
`CGAGGCCC` gave an E-score of 0.27.
With `TCGTGACA` the E-score was 0.267.
With `ACGCATTG` the E-score was 0.318.
The E-score of `CGTGCCGA` is reported as 0.268.
`CACGCGCC` has an E-score of 0.455.
`CACGTGTC` gave an E-score of 0.493.
`CACGTTAA` has an E-score of 0.304.
`ACACCGTG` has an E-score of 0.333.

Excerpt of the above (series 2):
For `AUGACC`, “6-mer enrichment (R)” read 0.643.
`AGGUGA`: “6-mer enrichment (R)” 1.41.
`GCCAAG` — result for “6-mer enrichment (R)”: 1.12.
Under “6-mer enrichment (R)”, `GAUAAG` is recorded as 0.957.
`CCAGGG` — result for “6-mer enrichment (R)”: 2.21.
